Results pooled from the literature.
Parts stem from different laboratories: compare values within a part only. Values joined by “and” are separate records of one study, mostly repeats; a detail may differ.
Chain of UniProt Q08345 (whole entry, looked up): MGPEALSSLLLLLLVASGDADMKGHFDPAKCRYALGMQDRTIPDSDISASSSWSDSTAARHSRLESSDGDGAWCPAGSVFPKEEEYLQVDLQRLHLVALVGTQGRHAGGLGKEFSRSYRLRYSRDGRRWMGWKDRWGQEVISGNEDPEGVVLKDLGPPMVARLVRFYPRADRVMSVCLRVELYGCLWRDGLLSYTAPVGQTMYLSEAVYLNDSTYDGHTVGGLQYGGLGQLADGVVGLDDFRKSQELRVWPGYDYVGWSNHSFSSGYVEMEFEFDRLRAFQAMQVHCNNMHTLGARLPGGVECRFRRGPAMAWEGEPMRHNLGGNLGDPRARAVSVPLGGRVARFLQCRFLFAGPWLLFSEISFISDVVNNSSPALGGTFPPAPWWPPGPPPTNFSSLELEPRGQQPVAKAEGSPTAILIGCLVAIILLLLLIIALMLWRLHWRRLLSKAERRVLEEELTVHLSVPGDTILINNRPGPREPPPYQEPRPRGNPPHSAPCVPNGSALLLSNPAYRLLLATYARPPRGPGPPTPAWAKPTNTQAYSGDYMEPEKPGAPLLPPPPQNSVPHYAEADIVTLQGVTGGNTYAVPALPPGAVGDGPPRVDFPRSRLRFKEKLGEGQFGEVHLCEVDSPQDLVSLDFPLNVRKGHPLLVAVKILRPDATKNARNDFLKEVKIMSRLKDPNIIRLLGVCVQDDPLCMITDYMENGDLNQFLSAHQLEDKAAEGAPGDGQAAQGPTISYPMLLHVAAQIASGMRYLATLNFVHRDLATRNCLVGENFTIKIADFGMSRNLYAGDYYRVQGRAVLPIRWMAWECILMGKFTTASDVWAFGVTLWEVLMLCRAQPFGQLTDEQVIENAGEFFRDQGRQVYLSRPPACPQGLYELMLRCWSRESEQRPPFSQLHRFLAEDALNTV
Chain of UniProt P0C264 (whole entry, looked up): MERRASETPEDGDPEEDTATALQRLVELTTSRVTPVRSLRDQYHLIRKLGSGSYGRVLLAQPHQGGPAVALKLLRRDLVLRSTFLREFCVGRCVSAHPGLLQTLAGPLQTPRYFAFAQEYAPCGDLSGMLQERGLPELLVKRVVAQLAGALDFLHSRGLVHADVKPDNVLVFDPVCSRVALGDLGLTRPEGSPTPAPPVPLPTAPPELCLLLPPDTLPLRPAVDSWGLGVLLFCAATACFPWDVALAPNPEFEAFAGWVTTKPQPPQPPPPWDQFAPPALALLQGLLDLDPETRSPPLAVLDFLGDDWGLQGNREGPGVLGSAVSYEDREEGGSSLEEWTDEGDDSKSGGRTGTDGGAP
Chain of UniProt Q96PY6 (whole entry, looked up): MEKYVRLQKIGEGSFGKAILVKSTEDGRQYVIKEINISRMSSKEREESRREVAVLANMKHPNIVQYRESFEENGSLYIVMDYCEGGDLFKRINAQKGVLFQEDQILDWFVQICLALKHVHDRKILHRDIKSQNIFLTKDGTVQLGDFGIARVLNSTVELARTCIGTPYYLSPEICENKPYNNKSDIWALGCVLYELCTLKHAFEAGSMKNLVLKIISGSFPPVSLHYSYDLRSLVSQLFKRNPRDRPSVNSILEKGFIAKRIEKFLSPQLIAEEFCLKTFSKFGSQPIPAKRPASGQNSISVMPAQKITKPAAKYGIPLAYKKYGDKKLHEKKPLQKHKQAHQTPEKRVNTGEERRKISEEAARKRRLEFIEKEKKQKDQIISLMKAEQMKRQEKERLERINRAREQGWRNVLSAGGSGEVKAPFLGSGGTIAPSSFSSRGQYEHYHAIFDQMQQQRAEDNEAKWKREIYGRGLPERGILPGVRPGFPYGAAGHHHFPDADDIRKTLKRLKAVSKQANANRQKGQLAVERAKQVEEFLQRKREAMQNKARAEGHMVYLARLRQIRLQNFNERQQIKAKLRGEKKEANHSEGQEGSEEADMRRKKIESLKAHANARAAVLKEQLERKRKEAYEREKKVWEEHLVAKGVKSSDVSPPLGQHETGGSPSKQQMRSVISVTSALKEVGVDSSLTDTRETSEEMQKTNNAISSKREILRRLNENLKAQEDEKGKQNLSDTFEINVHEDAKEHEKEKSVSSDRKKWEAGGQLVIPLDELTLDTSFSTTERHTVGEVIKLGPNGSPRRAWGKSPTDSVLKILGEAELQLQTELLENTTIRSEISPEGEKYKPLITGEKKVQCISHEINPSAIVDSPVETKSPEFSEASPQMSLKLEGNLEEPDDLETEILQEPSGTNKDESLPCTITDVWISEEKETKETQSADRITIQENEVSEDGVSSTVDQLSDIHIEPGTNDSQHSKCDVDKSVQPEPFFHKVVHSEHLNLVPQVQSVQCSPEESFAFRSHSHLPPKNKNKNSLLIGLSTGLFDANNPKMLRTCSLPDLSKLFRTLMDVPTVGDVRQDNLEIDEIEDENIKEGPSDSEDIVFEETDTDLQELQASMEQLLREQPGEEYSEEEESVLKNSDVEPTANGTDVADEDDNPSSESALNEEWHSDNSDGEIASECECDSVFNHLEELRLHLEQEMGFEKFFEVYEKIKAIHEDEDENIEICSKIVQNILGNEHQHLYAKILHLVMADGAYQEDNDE
Chain of UniProt Q00532 (whole entry, looked up): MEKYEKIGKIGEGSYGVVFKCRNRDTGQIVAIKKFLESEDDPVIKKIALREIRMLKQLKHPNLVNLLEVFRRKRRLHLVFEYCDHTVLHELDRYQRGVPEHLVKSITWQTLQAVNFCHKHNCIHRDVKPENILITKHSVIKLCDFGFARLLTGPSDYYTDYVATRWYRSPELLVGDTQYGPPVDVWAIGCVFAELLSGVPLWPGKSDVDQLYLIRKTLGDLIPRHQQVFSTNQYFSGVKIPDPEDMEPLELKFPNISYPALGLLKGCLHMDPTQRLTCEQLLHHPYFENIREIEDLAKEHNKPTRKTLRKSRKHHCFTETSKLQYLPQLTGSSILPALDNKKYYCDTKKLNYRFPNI

Sample 1 — SMILES: O=C(Nc1ccccc1)Nc1cccc(Oc2ccc3nccn3n2)c1; read-out: enzyme activity; mode: inhibitor; method: radiometric
target | IC50
DDR1 (Homo sapiens, UniProt Q08345) | < 400 nM and 380 nM
CSF1R (Homo sapiens, UniProt P07333) | 230 nM
PDGFRA (Homo sapiens, UniProt P16234) | 260 nM
KIT (Homo sapiens, UniProt P10721) | 11 nM
ABL1 (Homo sapiens, UniProt P00519) | 4700 nM
PDGFRB (Homo sapiens, UniProt P09619) | 1200 nM

Sample 2 — species: CD-1 mouse, female; medium: plasma; route: oral; dose: 20 mg/kg
SMILES | half-life [h]
Cc1ccc(O)c(C)c1-c1cnc2[nH]c(-c3cnc(N4CCC(CN5CCN(c6cc7c(cc6F)n(C6CCC(=O)NC6=O)c(=O)n7C)CC5)CC4)nc3)cc2c1C#N (stereo not shown) | 2.6
Cc1ccc(O)c(C)c1-c1cnc2[nH]c(-c3cnc(N4CCC(CN5CCN(c6ccc7c(c6F)CN(C6CCC(=O)NC6=O)C7=O)CC5)CC4)nc3)cc2c1C#N (stereo not shown) | 2.3
Cc1ccc(O)c(C)c1-c1cnc2[nH]c(-c3cnc(N4CCC5(CC4)CC(N4CCN(c6ccc(NC7CCC(=O)NC7=O)cc6F)CC4)CO5)nc3)cc2c1C#N (stereo not shown) | 4.5

Sample 3
SMILES: COc1cc(-c2nc3ccc(C(=O)NCCCN4CCN(c5cccc(C)c5C)CC4)cc3n2C2CCC2)cc(OC)c1OC
target | read-out | method | concentration | remaining binding [%]
SBK3 (Homo sapiens, UniProt P0C264) | binding | competition with immobilised ligand | 1 µM | 95
CDKL1 (Homo sapiens, UniProt Q00532) | binding | competition with immobilised ligand | 1 µM | 66
PHKG2 (Homo sapiens, UniProt P15735) | binding | competition with immobilised ligand | 1 µM | 91
CDKL5 (Homo sapiens, UniProt O76039) | binding | competition with immobilised ligand | 1 µM | 96
FRK (Homo sapiens, UniProt P42685) | binding | competition with immobilised ligand | 1 µM | 67
MAP3K7 (Homo sapiens, UniProt O43318) | binding | competition with immobilised ligand | 1 µM | 95
TAOK2 (Homo sapiens, UniProt Q9UL54) | binding | competition with immobilised ligand | 1 µM | 82
ULK1 (Homo sapiens, UniProt O75385) | binding | competition with immobilised ligand | 1 µM | 90
PIM1 (Homo sapiens, UniProt P11309) | binding | competition with immobilised ligand | 1 µM | 89
PI4KB (Homo sapiens, UniProt Q9UBF8) | binding | competition with immobilised ligand | 1 µM | 91
TESK1 (Homo sapiens, UniProt Q15569) | binding | competition with immobilised ligand | 1 µM | 98
ERBB4 (Homo sapiens, UniProt Q15303) | binding | competition with immobilised ligand | 1 µM | 97
EPHA3 (Homo sapiens, UniProt P29320) | – | KINOMEscan | 1000 nM | 98
ANKK1 (Homo sapiens, UniProt Q8NFD2) | binding | competition with immobilised ligand | 1 µM | 72
LATS2 (Homo sapiens, UniProt Q9NRM7) | binding | competition with immobilised ligand | 1 µM | 49
NEK1 (Homo sapiens, UniProt Q96PY6) | binding | competition with immobilised ligand | 1 µM | 79
MAK (Homo sapiens, UniProt P20794) | binding | competition with immobilised ligand | 1 µM | 100
SRC (Homo sapiens, UniProt P12931) | binding | competition with immobilised ligand | 1 µM | 71

Sample 4 — read-out: thermal unfolding; method: differential scanning fluorimetry; concentration: 5.5 µM; reading: higher = more unfolded
SMILES: C[C@@H]1CN(c2ccc(-c3cc(C(=O)NCCOCCOCCOCCOCCOCCOCCNC(=O)/C=C/c4[nH]cc(C(=O)N[C@@H](CC(N)=O)c5ccc(F)c(Cl)c5)c4-c4ccc(Cl)cc4F)ccc3F)cc2NC(=O)c2ccc(F)cc2C(F)(F)F)C[C@H](C)N1C
DCAF1: DDB1- and CUL4-associated factor 1 (DCAF1, Homo sapiens, UniProt Q9Y4B6)
Chain of UniProt Q9Y4B6 (whole entry, looked up): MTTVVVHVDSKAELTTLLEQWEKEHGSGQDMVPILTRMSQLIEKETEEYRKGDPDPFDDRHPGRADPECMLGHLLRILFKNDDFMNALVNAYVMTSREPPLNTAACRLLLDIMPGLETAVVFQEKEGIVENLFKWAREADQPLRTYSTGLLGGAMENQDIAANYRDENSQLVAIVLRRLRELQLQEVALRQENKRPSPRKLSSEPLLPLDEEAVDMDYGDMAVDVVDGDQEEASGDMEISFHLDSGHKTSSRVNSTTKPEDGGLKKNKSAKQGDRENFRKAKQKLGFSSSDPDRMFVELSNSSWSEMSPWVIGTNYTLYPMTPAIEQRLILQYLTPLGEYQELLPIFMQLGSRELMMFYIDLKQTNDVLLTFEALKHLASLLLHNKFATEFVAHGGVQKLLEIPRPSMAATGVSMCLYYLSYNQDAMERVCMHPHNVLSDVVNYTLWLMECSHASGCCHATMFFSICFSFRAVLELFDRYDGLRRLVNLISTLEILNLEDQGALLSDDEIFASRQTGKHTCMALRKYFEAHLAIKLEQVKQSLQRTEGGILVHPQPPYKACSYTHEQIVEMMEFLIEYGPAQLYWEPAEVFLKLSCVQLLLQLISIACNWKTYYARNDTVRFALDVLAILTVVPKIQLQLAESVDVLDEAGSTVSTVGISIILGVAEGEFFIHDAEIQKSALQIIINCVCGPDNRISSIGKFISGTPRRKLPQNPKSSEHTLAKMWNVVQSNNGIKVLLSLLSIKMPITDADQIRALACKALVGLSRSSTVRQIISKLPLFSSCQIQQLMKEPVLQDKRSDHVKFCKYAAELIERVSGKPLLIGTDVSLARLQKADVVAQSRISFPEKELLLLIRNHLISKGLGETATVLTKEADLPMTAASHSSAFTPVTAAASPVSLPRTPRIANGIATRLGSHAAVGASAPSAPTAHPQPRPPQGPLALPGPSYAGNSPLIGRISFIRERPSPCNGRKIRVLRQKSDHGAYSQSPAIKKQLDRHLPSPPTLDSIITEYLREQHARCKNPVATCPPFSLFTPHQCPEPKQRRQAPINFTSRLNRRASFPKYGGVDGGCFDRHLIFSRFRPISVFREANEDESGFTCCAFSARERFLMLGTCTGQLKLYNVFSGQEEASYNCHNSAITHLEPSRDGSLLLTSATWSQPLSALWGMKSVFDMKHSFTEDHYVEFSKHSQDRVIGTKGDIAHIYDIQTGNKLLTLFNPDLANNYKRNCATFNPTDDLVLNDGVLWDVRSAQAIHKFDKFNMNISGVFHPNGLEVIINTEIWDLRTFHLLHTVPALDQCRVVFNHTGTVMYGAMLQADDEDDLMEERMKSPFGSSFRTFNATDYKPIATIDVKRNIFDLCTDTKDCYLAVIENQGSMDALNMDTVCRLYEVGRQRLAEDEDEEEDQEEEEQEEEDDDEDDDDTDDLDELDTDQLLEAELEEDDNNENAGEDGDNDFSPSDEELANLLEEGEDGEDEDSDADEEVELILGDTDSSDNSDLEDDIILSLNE
WDR5: WD repeat-containing protein 5 (WDR5, Homo sapiens, UniProt P61964)
target | temperature | SYPRO Orange fluorescence
DCAF1 | 61.01 °C | 50400 a.u.
WDR5 | 58.21 °C | 15700 a.u.
WDR5 | 31.8 °C | 13700 a.u.
DCAF1 | 94.81 °C | 28700 a.u.
DCAF1 | 71.81 °C | 46500 a.u.
DCAF1 | 85.21 °C | 35700 a.u.
WDR5 | 61.81 °C | 15200 a.u.
DCAF1 | 40.8 °C | 12000 a.u.
WDR5 | 50 °C | 16400 a.u.
DCAF1 | 74.81 °C | 43900 a.u.
DCAF1 | 34.2 °C | 9590 a.u.

Sample 5
Compound: O=C(O)C1(O)Oc2cc(F)ccc2N(Cc2ccccc2)C1=O (stereo not shown)
organism | assay | system | conditions | scale | inhibition
Arabidopsis thaliana | hypocotyl length | Col-0 | 12.5 µg/mL, 7 days, seed germination, dark | – | 45.1%
Arabidopsis thaliana | root length | Col-0, seedlings | 25 µg/mL | reference: water control | 88.3%
Arabidopsis thaliana | root length | Col-0, seedlings | 6.25 µg/mL | reference: water control | 60%
Arabidopsis thaliana | hypocotyl length | Col-0 | 25.0 µg/mL, 7 days, seed germination, dark | – | 59.4%
Avena fatua | fresh weight | – | 150 g ai/ha, pre-emergence treatment | – | 100%
Arabidopsis thaliana | hypocotyl length | Col-0, seedlings | 100 µg/mL | – | 99.6%
Arabidopsis thaliana | root length | Col-0, seedlings | 50 µg/mL | reference: water control | 99.2%
Arabidopsis thaliana | root length | Col-0, seedlings | 25 µg/mL | – | 88.3%
Arabidopsis thaliana | root length | Col-0, seedlings | 50 µg/mL | – | 99.2%
Glycine max | fresh weight | – | soil surface spray, 150 g ai/ha, 21 days, pre-emergence crop safety | – | 3.5% and 2.2% and 2.7%
Amaranthus retroflexus | fresh weight | – | 150 g ai/ha, post-emergence treatment | – | 70.4% and 75% and 71.5%
Arabidopsis thaliana | hypocotyl length | Col-0, seedlings | 12.5 µg/mL | – | 45.1%
Arabidopsis thaliana | hypocotyl length | Col-0, seedlings | 50 µg/mL, half-strength MS | – | 99.4%

Sample 6 — concentration: 1 µM
Structure (SMILES): CC[C@@]1(c2cccc(C(F)(F)F)c2)C2=C(Nc3n[nH]cc31)[C@H](F)C(C)(C)CC2=O (single isomer, unassigned)
target | read-out | method | reference | remaining binding [%]
FGR (Homo sapiens, UniProt P09769) | binding | competition with immobilised ligand | – | 100
MYLK3 (Homo sapiens, UniProt Q32MK0) | kinase binding | KINOMEscan | DMSO control | 100
ERBB3 (Homo sapiens, UniProt P21860) | binding | competition with immobilised ligand | – | 100
PRKCD (Homo sapiens, UniProt Q05655) | kinase binding | KINOMEscan | DMSO control | 100
NEK1 (Homo sapiens, UniProt Q96PY6) | kinase binding | KINOMEscan | DMSO control | 89
CDK7 (Homo sapiens, UniProt P50613) | binding | competition with immobilised ligand | – | 95
PTK6 (Homo sapiens, UniProt Q13882) | kinase binding | KINOMEscan | DMSO control | 85
STK3 (Homo sapiens, UniProt Q13188) | kinase binding | KINOMEscan | DMSO control | 100
TGFBR2 (Homo sapiens, UniProt P37173) | binding | competition with immobilised ligand | – | 100
FGFR3 (Homo sapiens, UniProt P22607, G697C) | binding | competition with immobilised ligand | – | 100
HIPK2 (Homo sapiens, UniProt Q9H2X6) | binding | competition with immobilised ligand | – | 79
PRKACB (Homo sapiens, UniProt P22694) | binding | competition with immobilised ligand | – | 100
BMX (Homo sapiens, UniProt P51813) | binding | competition with immobilised ligand | – | 100
MAP4K4 (Homo sapiens, UniProt O95819) | kinase binding | KINOMEscan | DMSO control | 92
CLK3 (Homo sapiens, UniProt P49761) | kinase binding | KINOMEscan | DMSO control | 94
CDK17 (Homo sapiens, UniProt Q00537) | binding | competition with immobilised ligand | – | 72
Ribosomal protein S6 kinase alpha-1, N-terminal kinase domain (RPS6KA1, Homo sapiens, UniProt Q15418) | kinase binding | KINOMEscan | DMSO control | 92
STK25 (Homo sapiens, UniProt O00506) | kinase binding | KINOMEscan | DMSO control | 85
SBK3 (Homo sapiens, UniProt P0C264) | binding | competition with immobilised ligand | – | 100

Sample 7 — cell line: U-87 MG; concentration: concentration not given; reference: DMSO
SMILES: CCN1/C(=C/C=C2\CCCC(/C=C/C3=[N+](CC)c4ccccc4C3(C)C)=C2NCCCCCCCCN2CCC(Nc3nc4ccccc4n3Cc3ccc(F)cc3)CC2)C(C)(C)c2ccccc21
refers to | log2 fold change
TREX1 mRNA | -1.11
ANKRD42 mRNA | 1.11
H2BC21 mRNA | 1.65
DNAJB2 mRNA | 1.31
NCOA7 mRNA | 1.24
CLIC3 mRNA | -3.48
WEE1 mRNA | -2.13
ATF3 mRNA | 3.08
CHST1 mRNA | -1.7
IL36G mRNA | 3.57
HSPA13 mRNA | 1.23
CDCA8 mRNA | -2.24
AS3MT mRNA | -1.33
PSMD8 mRNA | 0.864
PSAP mRNA | 0.835
MMP3 mRNA | 1.24

Mixed results
SLC6A19: Sodium-dependent neutral amino acid transporter B(0)AT1 (SLC6A19, Homo sapiens, UniProt Q695T7)
Chain of UniProt Q695T7 (whole entry, looked up): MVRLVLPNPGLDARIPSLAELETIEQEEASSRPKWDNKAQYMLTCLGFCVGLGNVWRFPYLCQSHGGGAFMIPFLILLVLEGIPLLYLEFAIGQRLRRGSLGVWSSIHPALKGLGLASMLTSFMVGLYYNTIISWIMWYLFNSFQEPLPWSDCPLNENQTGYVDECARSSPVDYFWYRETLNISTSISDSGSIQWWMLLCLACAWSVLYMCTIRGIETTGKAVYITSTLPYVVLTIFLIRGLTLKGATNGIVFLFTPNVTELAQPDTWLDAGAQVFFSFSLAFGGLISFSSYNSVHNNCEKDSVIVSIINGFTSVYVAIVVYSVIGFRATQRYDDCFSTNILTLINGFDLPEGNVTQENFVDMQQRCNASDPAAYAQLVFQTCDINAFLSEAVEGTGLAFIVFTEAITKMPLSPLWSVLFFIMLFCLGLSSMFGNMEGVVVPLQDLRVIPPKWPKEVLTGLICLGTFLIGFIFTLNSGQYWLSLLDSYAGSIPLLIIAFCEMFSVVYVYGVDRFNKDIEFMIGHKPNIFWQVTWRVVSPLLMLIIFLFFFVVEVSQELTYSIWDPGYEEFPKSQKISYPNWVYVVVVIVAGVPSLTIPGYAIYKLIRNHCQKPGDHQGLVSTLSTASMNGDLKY
VHL with Elongin B/C: von Hippel-Lindau disease tumor suppressor, with Elongin B/C (VHL, Homo sapiens, UniProt P40337)
SMILES | target | assay | system | conditions | scale | quantity | value
CC(C)NC(=O)COc1ccc(Cl)cc1 | SLC6A19 | inhibitor, L-[14C]leucine uptake | CHO-BC cells | second repeat | – | IC50 | 14200 nM
Cc1ncsc1-c1ccc(C2(NC(=O)C3CC(O)CN3C(=O)C(NC(=O)c3ccc(COc4c(-c5c(C)c(F)cc6[nH]ncc56)c(C5CC5)cc5c(N6CC7CC6CN7)nc(OC6CCOCC6)nc45)cc3)C(C)(C)C)CC2)cc1 (stereo not shown) | GTPase KRas (KRAS, Homo sapiens, UniProt P01116, G12D) | degrader, In-Cell ELISA | AsPC-1 (KRAS G12D) | 24 h, geometric mean | – | DC50 | 682 nM
Cc1cc(OCC(=O)NC(C)C)ccc1Cl | SLC6A19 | inhibitor, FLIPR membrane potential | CHO-BC cells | 30 µM | – | normalised transport activity | 0.2
Cc1ncsc1-c1ccc(C2(NC(=O)C3CC(O)CN3C(=O)C(NC(=O)c3ccc(COc4c(-c5c(C)c(F)cc6[nH]ncc56)c(C5CC5)cc5c(N6CC7CC6CN7)nc(OC6CCOCC6)nc45)cc3)C(C)C)CC2)cc1 (stereo not shown) | VHL with Elongin B/C | SPR, single-cycle | immobilized VCB complex | binary, geometric mean | – | koff | 0.0554 s⁻¹
CCNC(=O)COc1cc(C)c(Cl)c(C)c1 | SLC6A19 | inhibitor, L-[14C]leucine uptake | CHO-BC cells | second repeat | – | IC50 | 480 nM
Cc1ncsc1-c1ccc(C(CO)NC(=O)C2CC(O)CN2C(=O)C(NC(=O)c2ccc(COc3c(-c4c(C)c(F)cc5[nH]ncc45)c(C4CC4)cc4c(N5CC6CC5CN6)nc(OC5CCOCC5)nc34)cc2)C(C)C)cc1 (stereo not shown) | VHL with Elongin B/C | SPR, single-cycle | immobilized VCB complex | binary, geometric mean | – | koff | 0.0157 s⁻¹
CCCCCCCCNC(=O)COc1cc(C)c(Cl)c(C)c1 | SLC6A19 | FLIPR membrane potential | CHO-BC | concentration not given | reference: 100 µM cinromide set to 0 | remaining activity | 105%
CCN1CCN(Cc2ccc(COc3c(-c4c(C)c(F)cc5[nH]ncc45)c(C4CC4)cc4c(N5C[C@@H]6C[C@H]5CN6)nc(OC5CCOCC5)nc34)cc2)C(=O)C1 | GTPase KRas, GDP-bound (KRAS, Homo sapiens, UniProt P01116, G12D) | SPR, multi-cycle | immobilized KRAS G12D | binary, geometric mean | – | kon | 3.58e+06 M⁻¹ s⁻¹
